Measurements of several laboratories.
Each numbered part is a random draw from the data of one study; scales do not carry over between parts.

Block 1 — method: competition protein-binding microarray; molecule type: double-stranded DNA, one strand shown; medium: in vitro; concentration: 2 µM; together with: Pho4 competitor, 0.05 µM; reading: higher = stronger binding; constant ends, left off below: … GTCTTGATTCGCTTGACGCTGCTG
Target: Centromere-binding protein 1, full length, His-tagged (CBF1, Saccharomyces cerevisiae, UniProt P17106, residues 1-351)
Sequence of UniProt P17106 (whole entry, looked up): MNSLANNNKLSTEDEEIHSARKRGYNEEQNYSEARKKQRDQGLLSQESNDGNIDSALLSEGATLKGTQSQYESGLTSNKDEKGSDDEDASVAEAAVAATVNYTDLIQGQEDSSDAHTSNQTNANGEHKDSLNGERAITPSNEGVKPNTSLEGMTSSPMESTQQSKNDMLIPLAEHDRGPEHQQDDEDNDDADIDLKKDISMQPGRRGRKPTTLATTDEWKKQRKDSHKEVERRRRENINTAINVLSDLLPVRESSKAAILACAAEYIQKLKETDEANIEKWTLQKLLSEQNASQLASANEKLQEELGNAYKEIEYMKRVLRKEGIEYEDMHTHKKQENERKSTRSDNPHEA
Setting: whole 60-bp probe, lowest competitor level
Strand	fluorescence intensity [a.u.]
GCCGGACCAGCTTGGCCCGTGGAATTGTCTATATTG	45.6
TGCCTCAGTTATGAGCACGTGCTCTGACCTGGCTGC	2980
TTGGAAGTTGTATCGCACGTACAGGACCTGAACACT	69.1
CTTTCCCGATCTTGCGGTGTGGGTGTAGCACATTTG	62.9
ATCTCTGTCAACTGCCTCGTGCTAAAAGCAGGATTG	131

Block 2 — method: protein binding microarray; molecule type: double-stranded DNA, one strand shown; medium: in vitro; concentration: not given; relative to: not given; reading: higher = stronger binding
Target: Histone acetyltransferase KAT6A, winged helix 1, GST fusion (KAT6A, Homo sapiens, UniProt Q92794, residues 1-85)
Setting: 8-mer, flanks averaged, mean of 2 arrays, mostly near background
Target sequence (chain): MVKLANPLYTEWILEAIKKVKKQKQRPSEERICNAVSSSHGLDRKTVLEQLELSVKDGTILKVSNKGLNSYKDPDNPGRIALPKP
Strand	E-score
AGGATCTA	-0.16
AACTCCTT	-0.00024
AGATAGCG	0.0326
CCTACTAA	-0.019
GACCTACA	-0.00329
ACGGCAGT	0.27
GCTGCCAC	-0.119
CGACGTGC	0.202

Block 3 — method: RNA Bind-n-Seq; molecule type: RNA; medium: in vitro; concentration: 365 nM; relative to: no-protein control; reading: higher = stronger binding
Target: RNA binding protein fox-1 homolog 2, RRM domain, GST-SBP tag (RBFOX2, Homo sapiens, UniProt O43251-10, residues 100-194)
Setting: natural RNA segment, single round, ends assumed
Strand	RBNS enrichment (R)
GGGAGUUCUACAGUCCGACGAUCUCCUUUUGCUUCCACCACCACUAGCUUCUUUGGAAUCUUGGGGUGGGGGUCAUCUUUGGGGAUUAUGGCUGCCACCCGGGAUUUGAGUGUAGGGAGUGUGGGAGCAGCCUUGGAAUUCUCGGGUGCCAA	0.553
GGGAGUUCUACAGUCCGACGAUCGUACAUGCUGAACUCCAAAUUCUUCCAUAUCAACUUCAAGCCCCAAGCCUCCAAUGUAUUACCUACCAUGCGCAUGAAUAAUUUUCUUCCAUGGCUUUUACACUGUCAACUGGAAUUCUCGGGUGCCAA	0.724
GGGAGUUCUACAGUCCGACGAUCGAUUUGAGCCCUACUAAGUGACUGACCACUGUUUAGAGUGUCUGGUAUCUGAUGUUCAUUUAUUCCCAUGUUCUUGUGUGUCACAGUUCAGCCAGUUUUGGUUUAUGCCUUGGAAUUCUCGGGUGCCAA	0.556
GGGAGUUCUACAGUCCGACGAUCUGUAGCCCCUCUUCUCUGCUCUGCCCCUCCUUUCCUGUCCCCUCCUUUAGCCCCUUCCCCCAAGGACUUCCUCCUGGAGACUCAGCCCCUAAGCUGGAACUGCUGUUAGGUGGAAUUCUCGGGUGCCAA	0.801

Further values, each from its own experiment
Substance	target	assay	system	setting	scale	quantity	value
PhoQ, residues 284 288 289 292 302 303 WVSSAF	PhoP, residues 12 14 15 18 19 NYFTV (Escherichia coli, UniProt P23836)	Sort-seq, item: YFP reporter	E. coli	PhoQ-PhoP variant library, together with: 10 µM Mg2+	relative to: high Mg2+ state, higher = stronger signaling	fold induction	16.2

For quick reference, copied from above (block 3):
Strand	RBNS enrichment (R)
GGGAGUUCUACAGUCCGACGAUCGAUUUGAGCCCUACUAAGUGACUGACCACUGUUUAGAGUGUCUGGUAUCUGAUGUUCAUUUAUUCCCAUGUUCUUGUGUGUCACAGUUCAGCCAGUUUUGGUUUAUGCCUUGGAAUUCUCGGGUGCCAA	0.556
